Assay results pooled from the literature.
Values joined by “and” are separate records of one study, mostly repeats; a detail may differ. Numbers after ± are the reported error.

Cc1c2oc3c(C)ccc(C(=O)N[C@@H]4C(=O)N[C@H](C(C)C)C(=O)N5CCC[C@H]5C(=O)N(C)CC(=O)N(C)[C@@H](C(C)C)C(=O)O[C@@H]4C)c3nc-2c(C(=O)N[C@@H]2C(=O)N[C@H](C(C)C)C(=O)N3CCC[C@H]3C(=O)N(C)CC(=O)N(C)[C@@H](C(C)C)C(=O)O[C@@H]2C)c(N)c1=O
maximum plasma concentration (children with cancer, plasma; dose not given, 30 min): 40.7 µg/L

O=C(Nc1nc2cccc(-c3ccc(CN4CCS(=O)(=O)CC4)cc3)n2n1)C1CC1
treatment-emergent adverse events (refers to: arthropod sting allergy; rheumatoid arthritis patients; oral, 150 mg once daily, 4 weeks, any relatedness): 0%

Cc1cc(NC(=O)c2cccc(NC(=O)/C=C/CN(C)C)c2)ccc1Nc1nccc(-c2cccnc2)n1
remaining compound (rat Wistar male, plasma; 1 µM, 30 min): 92.7%

O=C(COc1ccc(Cl)cc1)NC12CC(c3nnc([C@H]4C[C@@H](OC(F)(F)F)C4)o3)(C1)C2
treatment-emergent adverse events (catheter site pain; human, both sexes; oral, dose not given, single ascending dose, fasted, all doses; baseline: subjects): 5.6%

CC(C)[C@@H](CS(=O)(=O)C(C)C)N1C(=O)[C@@](C)(CC(=O)O)C[C@H](c2cccc(Cl)c2)[C@H]1c1ccc(Cl)cc1
AUC(0-inf) (FVB mice Abcb1a/b Abcg2 knockout, brain; intravenous, 20 mg/kg): 7990 ± 248 ng·h/mL

Cc1nc(O)n2ncc(Br)c2n1
maximum haemolysis (sheep erythrocytes; 1 h, pH 7.5): 2.5%

CC(=O)[C@]1(O)Cc2c(O)c3c(c(O)c2[C@@H](O[C@H]2C[C@H](N)[C@H](O)[C@H](C)O2)C1)C(=O)c1ccccc1C3=O
EC50 (Toxoplasma gondii; bradyzoite growth; pH 8.2, alkaline-induced bradyzoites): 0.3 µM

CC(=O)NCCc1c[nH]c2ccc(O)cc12
specific activity (sulfation, substrate; pooled human kidney cytosol; 50 µM, 30 min, together with: 50 mM NaF): 3.56 ± 0.13 pmol/min/mg

CNC(=O)c1ccc(-c2cnc3ncc(Cc4ccc5ncccc5c4)n3n2)cc1F
Constipation dose reduction/interruption (Japanese patients; oral, 400 mg, any grade): 1%

CC1(C)CCC(CN2CCN(c3ccc(C(=O)NS(=O)(=O)c4ccc(NCC5CCOCC5)c([N+](=O)[O-])c4)c(Oc4cnc5[nH]ccc5c4)c3)CC2)=C(c2ccc(Cl)cc2)C1
C0 fold change (patients; oral, dose not given, together with: triazole antifungals; baseline: without triazoles): 1

CC(C)(C(=O)N1CCOc2c(C#N)cncc2C1)C(F)F
subjects with TEAE (refers to: vessel puncture site hypoaesthesia; healthy humans, both sexes; oral, 40 mg single dose): 16.7%

COc1cc2c3c(n(CCCN4CCOCC4)c(=O)c2cc1OC)-c1cc2c(cc1C3=O)OCO2
CL (beagle dog, female, plasma; intravenous infusion, 100 mg/m^2, 1 h infusion, vehicle 1): 36.6 ± 9.9 L/h/m²

COC(=O)[C@@H]1[C@H]2C[C@H]3c4[nH]c5ccccc5c4CCN3C[C@@H]2CC[C@@H]1O
concentration (rat, plasma; intraperitoneal, 1 mg/kg, 1.5 h, together with: tizanidine): 990 nM

Nc1nc2c(nc([N+](=O)[O-])n2[C@@H]2O[C@H](CO)[C@@H](O)[C@H]2O)c(=O)[nH]1
nucleoside remaining fraction (depurination, RP-HPLC; citrate-phosphate buffer 0.5 mM; 110 min, pH 2, 37 °C): 0.8

CCN1/C(=C/C(C)=O)Sc2ccc(F)cc21
diastolic blood pressure (cynomolgus monkey; oral, 10 mg/kg, 1 h post-dose): 74 ± 5 mmHg

CCCCc1oc2ccccc2c1C(=O)c1cc(I)c(OCCN(CC)CC)c(I)c1
mean blood pressure (male Hartley guinea pigs, anaesthetized; intravenous, 20 mg/kg group, baseline before infusion): 42 ± 0.3 mmHg

CC(C)n1c(Nc2cccnc2)nc2cnc(Nc3ccc(N4CCN(C)CC4)cc3)nc21
subjects with adverse event (refers to: white blood cell count elevated; healthy male subjects; oral, 150 mg, study, together with: rifampin): 0%

C=CC(=O)Nc1cc(Nc2nccc(-c3cn(C)c4ccccc34)n2)c(OC)cc1N(C)CCN(C)C
CLss/F (human patients; oral, cycle 3 day 1, mean, together with: chemotherapy): 14.8 L/h

CN(CC#N)C(=O)C[C@H](Nc1nc2ccccc2[nH]1)c1cccc(C(F)(F)F)c1
apparent volume of distribution (human; intravenous infusion, 3 mg/kg, 1 mg/mL formulation): 91.5 ± 25.1 L

O=C(c1cccnc1-c1ccncc1)N1CCC(O)(Cc2ccccc2)CC1
AUClast/dose (healthy Japanese adults, plasma; oral, 200 mg single dose): 3.48 ng·h/mL/mg

CCOc1c([C@H](C)n2nc(C)c3c(N)ncnc32)cc(Cl)c(F)c1[C@@H]1CNC(=O)C1
Cmax geometric mean (patients, monotherapy; oral, 45 mg once daily, cycle 1 day 15): 4960 nM

Cc1noc(C)c1-c1cc(C(O)(c2ccccn2)c2ccccn2)c2nc(C3CC3)[nH]c2c1
AUC(0-last) (human male fasted, plasma; oral, 6 mg once daily, cycle 1 day 8): 3110 ng·h/mL

Cc1ccc(O)c(-n2nc3ccccc3n2)c1
mean daily dermal uptake (exposure assessment; human, age 11-16 years; sunscreen): 764 ng/kg body weight/day

C[Si](C)(C)O[Si](C)(C)C
intercept A, log KAW vs 1/T: 11.8

CNCCOC12CC3(C)CC(C)(CC(Cn4ncc(-c5ccc(N6CCc7cccc(C(=O)Nc8nc9ccccc9s8)c7C6)nc5C(=O)O)c4C)(C3)C1)C2
QTcV interval change (beagle dog, male, anaesthetised; intravenous bolus, 0.03 mg/kg, 120 min; baseline: baseline): 10 ms

CC(C)NCC(O)COc1cccc2ccccc12 (centres unmarked)
mean blood pressure (male Hartley guinea pigs, anaesthetized; intravenous, 0.3 mg/kg over 10 min, after infusion): 41 ± 0.1 mmHg

COc1ccc(C[C@@H](C)[C@@H](C)Cc2ccc(OC)c(OC)c2)cc1OC
Cmax (beagle dog female, plasma; oral, 100 mg/kg/day, day 28): 1620 ± 245 ng/mL

O=C(O)CSc1nnc(Br)n1-c1ccc(C2CC2)c2ccccc12
AST (KM mouse, chronic hyperuricaemia model, serum; dose not given): 203 U/L and 222 U/L and 122 U/L and 214 U/L and 139 U/L and 193 U/L

CO[C@H]1C[C@@H]2CC[C@@H](C)[C@@](O)(O2)C(=O)C(=O)N2CCCC[C@H]2C(=O)O[C@H]([C@H](C)C[C@@H]2CC[C@@H](O)[C@H](OC)C2)CC(=O)[C@H](C)/C=C(\C)[C@@H](O)[C@@H](OC)C(=O)[C@H](C)C[C@H](C)/C=C/C=C/C=C/1C
rectal temperature (healthy adult horses; intravenous, 0.06 mg/kg, 4 h): 37.4 ± 0.3 °C

CCC(CC)C(=O)Oc1cccc(C(O)CCN)c1.O=CO (centres unmarked)
ERG a-wave amplitude (scotopic ERG; BALB/cJ mice; intraperitoneal, 10 mg/kg, 2 h dark adaptation, together with: 10,000 lx photobleach, 10 min): 15 µV and 42 µV and 50 µV and 51 µV and 27 µV

Cc1ccc(C(=O)N(CCCN)C(c2nc3snc(C)c3c(=O)n2Cc2ccccc2)C(C)C)cc1 (centres unmarked)
grade ≥3 hypokalemia patients (human patients; intravenous, 2 mg/day): 0%

Cn1c(C(F)(F)F)cc(=O)n(-c2cc(Oc3cccnc3OCC(=O)O)c(Cl)cc2F)c1=O
Cmax (beagle dog, male, plasma; oral capsule, 100 mg/kg/day epyrifenacil, day 1, 90-day study): 3120 ng/mL

O=C1NCCc2nc(OCc3cccc(F)c3)ccc21
Irwin test score (refers to: Miosis; Sprague-Dawley rat, male; oral, 100 mg/kg, 1 h, score 0 none to 2 full; direction not given): 0

CC(C)=CCC1=C(O)C(=O)c2ccccc2C1=O
anodic peak potential (cyclic voltammetry; CH2Cl2; 0.1 mM, together with: 0.1 M Bu4NPF6; baseline: Ag/AgCl (sat. KOH)): -1.44 V

CNC(=O)c1ccc(-c2cnc3ncc(Cc4ccc5ncccc5c4)n3n2)cc1F
upper abdominal pain incidence (all grades) (CTCAE v4.0, any causality; human cancer patients; oral, 600 mg twice daily, expansion cohort at RP2D): 5%

C=CC1(C)CC(OC(=O)CSc2nc3ccccc3s2)C2(C)C(C)CCC3(CCC(=O)C32)C(C)C1O (centres unmarked)
maximum haemolysis (sheep erythrocytes; 1 h, pH 7.5): 2.85%

COC(=O)C1=C(C)NC(C)=C(C(=O)OC(C)(C)CN(C)CCC(c2ccccc2)c2ccccc2)C1c1cccc([N+](=O)[O-])c1 (centres unmarked)
EC90 (Toxoplasma gondii; parasite growth; HFF, bradyzoite, glutamine-induced): 6.02 µM

Cc1cc(-c2nccc3c2ccn3CC(=O)Nc2ccc(-c3cnccn3)cn2)ccn1
subjects with gastrointestinal disorders TEAEs (human; SAD part, single 20 mg dose): 0%

c1ccc(-c2nc(N3CCC(c4ccccn4)C3)c3ccccc3n2)nc1 (centres unmarked)
C0 (female Balb/c mice, plasma; intravenous, 2 mg/kg, mean, together with: ABT 2 h prior): 2580 ng/mL

CC(C)=CCC/C(C)=C/CC/C(C)=C/CC[C@@](C)(O)CCC1=C(C)C(=O)C(C)=C(C)C1=O
AUC0-inf ratio (human, plasma; oral, dose not given, together with: itraconazole; baseline: with over without itraconazole): 289%

CC(C)(C)n1ncc(OCc2ccc(COCC[18F])cc2)c(Cl)c1=O
maximum myocardial uptake (dynamic PET; healthy C57BL/6J mouse; iv, dose not given): 6.4 ± 0.4 SUV

COc1ccc(CNc2nc(-c3ccc(C(=O)O)cc3)nc3c2c2ccccc2n3C)cc1Cl
body weight (NSG mice; dose not given, day 2 of treatment): 23.3 g and 21.6 g and 22.7 g and 20.5 g

C#Cc1cccc(Nc2ncnc3cc(OCCOC)c(OCCOC)cc23)c1
CL/F decrease (UPLC-MS/MS; Wistar rat, male, plasma; oral, four weeks, together with: PPA 175 mg/kg, low dose; baseline: control): 53%

Nc1ncnc2c1ncn2[C@@H]1O[C@H](CO)C[C@H]1O
cytotoxicity (LDH release; human ESC-derived lung organoids; concentration not given, 2 days): 8.56% and 7.33% and 9.68%

Cc1ccc2ccc(C(=O)O)c(O)c2n1
pKa (basic): < 2

C[C@H]1O[C@@H](O[C@H]2CC[C@@]3(C)[C@@H](CC[C@]4(C)[C@@H]3C=C[C@]35OC[C@@]6(CCC(C)(C)C[C@H]63)[C@@H](O)C[C@]54C)[C@]2(C)CO)[C@H](O)[C@@H](O[C@@H]2O[C@H](CO)[C@@H](O)[C@H](O)[C@H]2O)[C@H]1O
plasma concentration (UHPLC-MS/MS; mouse, plasma; oral, 50 mg/kg, 12 h): 0 ng/mL

Cc1ccc([C@@H]2O[C@H](CO)[C@@H](O)[C@H](O)[C@H]2O)cc1Cc1ccc(-c2ccc(F)cc2)s1
urinary phosphate excretion change (refers to: inorganic phosphorus; Japanese type 2 diabetes patients; 100 mg, day 4, 24 h urine collection; baseline: baseline): 76.5 mg

Excerpt of the above:
CCN1/C(=C/C(C)=O)Sc2ccc(F)cc21
diastolic blood pressure (cynomolgus monkey; oral, 10 mg/kg, 1 h post-dose): 74 ± 5 mmHg

CO[C@H]1C[C@@H]2CC[C@@H](C)[C@@](O)(O2)C(=O)C(=O)N2CCCC[C@H]2C(=O)O[C@H]([C@H](C)C[C@@H]2CC[C@@H](O)[C@H](OC)C2)CC(=O)[C@H](C)/C=C(\C)[C@@H](O)[C@@H](OC)C(=O)[C@H](C)C[C@H](C)/C=C/C=C/C=C/1C
rectal temperature (healthy adult horses; intravenous, 0.06 mg/kg, 4 h): 37.4 ± 0.3 °C

COc1cc2c3c(n(CCCN4CCOCC4)c(=O)c2cc1OC)-c1cc2c(cc1C3=O)OCO2
CL (beagle dog, female, plasma; intravenous infusion, 100 mg/m^2, 1 h infusion, vehicle 1): 36.6 ± 9.9 L/h/m²

Cc1c2oc3c(C)ccc(C(=O)N[C@@H]4C(=O)N[C@H](C(C)C)C(=O)N5CCC[C@H]5C(=O)N(C)CC(=O)N(C)[C@@H](C(C)C)C(=O)O[C@@H]4C)c3nc-2c(C(=O)N[C@@H]2C(=O)N[C@H](C(C)C)C(=O)N3CCC[C@H]3C(=O)N(C)CC(=O)N(C)[C@@H](C(C)C)C(=O)O[C@@H]2C)c(N)c1=O
maximum plasma concentration (children with cancer, plasma; dose not given, 30 min): 40.7 µg/L

CNC(=O)c1ccc(-c2cnc3ncc(Cc4ccc5ncccc5c4)n3n2)cc1F
Constipation dose reduction/interruption (Japanese patients; oral, 400 mg, any grade): 1%

O=C(Nc1nc2cccc(-c3ccc(CN4CCS(=O)(=O)CC4)cc3)n2n1)C1CC1
treatment-emergent adverse events (refers to: arthropod sting allergy; rheumatoid arthritis patients; oral, 150 mg once daily, 4 weeks, any relatedness): 0%
